Results pooled from the literature.
Lines come from different studies, so protocols differ. “And” joins repeats or separate records; there may be more than shown. ± gives the spread as reported.

The remaining compound of C=CC(=O)Nc1cc(Nc2nccc(-c3cn(C)c4ccccc34)n2)c(OC)cc1N(C)CCNC is reported as 64.2% (human, dried blood spots; 72 h, room temperature, high QC level).
CCCCN1C(=O)c2cccc3c(NCCCN4CCOCC4)ccc(c23)C1=O has a Stokes shift of 92 nm (DMSO).
With C=CC(=O)Nc1cc(Nc2nccc(-c3c[nH]c4ccccc34)n2)c(OC)cc1N(C)CCN(C)C the recovery was 103% (storage stability; human plasma; 2 h, on ice, LQC level).
O=C1c2sc(-c3ccc(N4CCC(CO)CC4)nc3F)nc2CCN1c1cccnc1 has a concentration of 1.51 ng/mL (CD1 mouse, plasma; i.v., dose not given, 1.25 h).
CC(C)(C)NCC(SS(=O)(=O)O)c1ccccc1 (stereo not drawn) — result for “body weight decrease”: -5% (Swiss Webster mice, Schistosoma mansoni-infected; 100 mg/kg x 2 doses from day 42 post-infection, perfusion day 56 post-infection; reference: vehicle).
The remaining compound of Cn1cnc([N+](=O)[O-])c1Sc1ccccc1C(=O)NCCC(N)=O is reported as 76.3% (LC-MS/MS; CD-1 mouse, CD-1 mouse blood; 1 µM, 15 min).
Cc1cc(-c2ccc(C(=O)[C@@H]3CCCC[C@H]3C(=O)Nc3cnn4c3C(=O)NCC4)cc2)[nH]n1: “recovery of radioactivity per interval” 0.1% (human, urine; oral, 200 mg, 48-72 h; reference: dose).
The Stokes shift of CCCCN1C(=O)c2cccc3c(NCCCCCCN4CCOCC4)ccc(c23)C1=O is reported as 103 nm (water; pH 6.0).
With CC[C@H](C)[C@@H]1NC(=O)[C@H](Cc2ccc(O)cc2)NC(=O)CCCSC[C@@H](C(=O)N(CC(=O)N[C@@H](CC(C)C)C(=O)NCC(N)=O)Cc2ccc(F)cc2)NC(=O)[C@H](CC(N)=O)NC(=O)[C@H](CCC(N)=O)NC1=O the drug-related dysgeusia was 33% (human; intranasal, 200 µg single).
With COc1cccc(OC)c1-c1cc(C(=O)NC2(C(=O)O)C3CC4CC(C3)CC2C4)nn1-c1ccc(C(=O)N(C)CCCN(C)C(=O)[C@H](CCCCNC(=O)[C@H](CC(C)C)NC(=O)C2OC2C(=O)O)NC(=O)CN2CCN(CC(=O)[O-])CCN(CC(=O)[O-])CCN(CC(=O)[O-])CC2)cc1C(C)C.[177Lu+3] (mixture of isomers) the tumour-to-stomach ratio was 26.4 (mouse HT-29 xenograft; 4 h, biodistribution; reference: tumour over stomach).
C#CCCCC(O)/C=C/C(=O)NC1(c2ccc(-c3nc4ccn5c(=O)[nH]nc5c4cc3-c3ccccc3)cc2)CCC1 (stereo not drawn): “first-order rate constant” -0.024 ± 0.001 min⁻¹ (microsomes, liver, mouse CD-1; 1 µM, pH 7.4, 37 °C, phosphate buffer 100 mM, with: NADPH).
COCC1CN(C2CCN(c3cc(OC)c(Nc4ncc(Br)c(Nc5ccc6c(c5P(C)(C)=O)OCCO6)n4)cc3C)CC2)C1 gave an adverse events of 0% (first-in-human trial; human; oral, 90 mg once daily; treatment-related leading to dose reduction).
O=C1c2sc(-c3ccc(N4CCC(F)C4)nc3F)nc2CCN1c1cccnc1 (stereo not drawn) has a concentration of 469 ng/mL and 397 ng/mL and 526 ng/mL (CD1 mouse, plasma; i.v., dose not given, 0.033 h).
For COc1cccc(OC)c1-c1cc(C(=O)NC2(C(=O)O)C3CC4CC(C3)CC2C4)nn1-c1ccc(C(=O)N(C)CCOCCN(C)C(=O)[C@H](CCCCNC(=O)[C@H](CC(C)C)NC(=O)C2OC2C(=O)O)NC(=O)CN2CCN(CC(=O)[O-])CCN(CC(=O)[O-])CCN(CC(=O)[O-])CC2)cc1C(C)C.[177Lu+3] (mixture of isomers), the tumour-to-stomach ratio was 15 (mouse HT-29 xenograft; 24 h, biodistribution; reference: tumour over stomach).
For CCCN(C)c1cc(C(F)(F)F)nc(SCCC(=O)NCc2ccco2)n1, “plasma troponin I” read “increased” (Wistar rat, plasma; intraperitoneal, 25 mg/kg, 2 h post-dose; reference: vehicle control).
[2H]C([2H])([2H])C1(C([2H])([2H])[2H])NC(=O)N(c2ccc(F)c(C(C)(F)F)c2)C1=O gave a Vd of 0.32 L/kg and 0.33 L/kg (dog, plasma; intravenous, 1 mg/kg).
For O=C(O)c1c(O)cc(O[C@@H]2O[C@H](CO)[C@@H](O)[C@H](O)[C@H]2O)cc1/C=C/c1ccccc1, serum ALT read “no effect” (FVB mouse; 40 mg/kg, 2 weeks; reference: vehicle).
For O=C([O-])CN1CCN(CC(=O)[O-])CCN(CC(CCCc2ccccc2[N+](=O)[O-])N(CC(=O)[O-])CC(=O)[O-])CC1.[90Y+3] (stereo not drawn), “intact radiolabelled complex” read 100% (HPLC; human serum; 183 h, pH 7, 37 °C).
The radiochemical stability of CC(C)Cc1ccc(C(C)C(=O)N[C@@H](CCCCNC(=O)CCOCCOCCOCCOCCOCCOCCNC(=O)CN2CCN(CC(=O)[O-])CCN(CC(=O)[O-])CCN(CC(=O)[O-])CC2)C(=O)Nc2cccc3c(C(=O)NCC(=O)N4CC(F)(F)C[C@H]4C#N)ccnc23)cc1.[177Lu+3] (stereo partly drawn) is reported as 98.8 ± 1.5% (human serum; 4 h, 37 °C, 177Lu-labelled).
C/C(N)=N/C(=N\S(=O)(=O)c1ccc(C(F)(F)F)cc1)N1C[C@H](c2ccccc2)C(c2ccc(Cl)cc2)=N1 gave a Cmax of 3760 ng/mL (male C57BL/6 mouse, muscle; intravenous, 10 mg/kg).
For CN(O)C(=O)CCC(=O)NCCCN(CCCCN(CCCNC(=O)CCC(=O)N(C)O)C(=O)CCC(=O)N(C)O)C(=O)CCC(=O)N(C)O.[89Zr], the intact complex was 98.9 ± 1% (radio-TLC; aqueous buffer; 7 d, pH 7.2, 37 °C, 89Zr-labelled complex, with: CaCl2 10-fold excess).
N#C[C@@H]1CC(F)(F)CN1C(=O)CNC(=O)c1ccnc2c(NC(=O)CCOCCOCCOCCOCCOCCOCCNC(=O)C(CCCCNC(=O)CN3CCN(CC(=O)[O-])CCN(CC(=O)[O-])CCN(CC(=O)[O-])CC3)NC(=O)CCCc3ccc(I)cc3)cccc12.[68Ga+3] (stereo partly drawn) gave a radiochemical stability of 98.56 ± 0.6% (human serum; 60 min, 37 °C, 68Ga-labelled).
The body weight of COc1cc(N2CCN(C(=O)C3CCCN3)CC2)ccc1Nc1ncc(Cl)c(Nc2ccccc2P(C)(C)=O)n1 (stereo not drawn) is reported as 23 g and 23.2 g and 24.6 g and 22.6 g and 22.9 g (nude mice, NCI-H3122 xenograft; oral, dose not given, day 11).
The MRT(0-t) of COc1cc2c(cc1OC)[C@H]1C[C@H](O)[C@H](CC(C)C)CN1CC2 is reported as 3.69 h (item: non-deuterated analyte; healthy human male, plasma; oral, 25 mg, geometric mean, [14C]-tetrabenazine dosed).
The SUV of O=C(Nc1cnccc1-c1ccc([18F])cc1)c1ccnc(NC(=O)C2CC2)c1 is reported as 2.11 (ex vivo gamma counting; GSK-3β transgenic mice, late-stage, large intestine; intravenous, 120 min, mean, P-gp inhibitor pretreatment, with: tariquidar 15 mg/kg iv).
The Stokes shift of CCCCN1C(=O)c2cccc3c(NCCN4CCOCC4)ccc(c23)C1=O is reported as 98 nm (acetonitrile).
The remaining compound of CN(Cc1cc(C2CC2)on1)C(=O)c1cccc(-c2ccc(F)cc2)c1 is reported as 76.9% (male ICR/CD-1 mouse, liver microsomes; 2 µM, 30 min, pH 7.5, with: 1-aminobenzotriazole 500 µM, preincubated 30 min).
CC[C@H](C)[C@H](NC(=O)[C@H](N)Cc1ccc(O)cc1)C(=O)N[C@H]1CSSC[C@@H](C(=O)N(C)[C@H](C(=O)N[C@@H](CCCCN)C(=O)N[C@@H](CCCCN)C(=O)N[C@@H](CCCCN)C(N)=O)[C@@H](C)CC)NC(=O)[C@H](CCCNC(=N)N)NC(=O)[C@H](Cc2c[nH]cn2)NC(=O)[C@H](C)NC(=O)CN(C)C(=O)[C@H](Cc2c[nH]c3ccccc23)NC(=O)[C@H](CC(=O)O)NC(=O)[C@H](CCC(N)=O)NC(=O)[C@H](Cc2cn(C)c3ccccc23)NC(=O)[C@H](C(C)C)NC1=O gave a concentration of about 200 nM (SPR-based competition; cynomolgus monkey, vitreous; intravitreal, 500 µg single, one month after injection, mean of eyes).
COc1ccc(C(N)=O)cn1 has a plasma concentration of 79.8 nM (Han Wistar rats, male, plasma; oral, 30 mg/kg, 8.00 h).
The purity of Cc1ccccc1Nc1ncnc2[nH]c(/C=C/c3ccccc3)nc12 is reported as 82% (HPLC; solution; after 1 h light exposure).
For CCCCN1C(=O)c2cccc3c(NCCCCCN4CCOCC4)ccc(c23)C1=O, the fluorescence lifetime was 8.8 ns (methanol).
The renal clearance of CCCCCCCOc1ccc(CC[C@](N)(CO)COP(=O)(O)O)cc1C(F)(F)F is reported as 0.0297 mL/min (healthy men, urine and plasma; oral, 0.25 mg once daily, day 21, fed state).
CCCCN1C(=O)c2cccc3c(NCCCCCCCCCCN4CCOCC4)ccc(c23)C1=O has a Stokes shift of 90 nm (DMSO).
With C=C(NC(=O)c1csc(-c2nc3c(cc2O)-c2nc(cs2)C(=O)NC(C(C)O)C(=O)NC(=C(C)OC)c2nc(cs2)C(=O)NC2c4nc(cs4)C(=O)NC(COC(=O)c4c5c6c(cccc6n4O)COC(=O)C(OC4CC(C)(O)C(N(C)C)C(C)O4)C2OC5)c2nc-3cs2)n1)C(N)=O (stereo not drawn) the AUC(0-t) was 873 ng·h/mL (ICR mice, Streptococcus pneumoniae ATCC 49169 infected, immunocompromised, blood; intravenous, 8 mg/kg/day three times daily).
N#C[C@@H]1CC(F)(F)CN1C(=O)CNC(=O)c1ccnc2c(NC(=O)[C@@H](N)CCCCNC(=O)CCOCCOCCOCCOCCOCCOCCNC(=O)CN3CCN(CC(=O)[O-])CCN(CC(=O)[O-])CCN(CC(=O)[O-])CC3)cccc12.[177Lu+3] has a radiochemical stability of 99 ± 1.5% (human serum; 24 h, 37 °C, 177Lu-labelled).
COc1ccc2c(c1)CN(C(=O)CCN1CCC(Cc3ccccc3)CC1)CC[S+]2[O-] (stereo not drawn) gave a fu of 0.139 (human plasma; 250 ng/mL).
For Cc1nc(N)nc2c1C(=O)N[C@@H](c1ccc(F)cc1-c1cccc(O[11CH3])n1)C2, the tracer uptake was 2 ± 0.4 %ID (ex vivo biodistribution; healthy mice, lungs; 60 min post-injection, baseline, vehicle pre-treatment).
For CN1CCC[C@]1(C)/C=C/S(=O)(=O)NC(=O)Nc1c2c(cc3c1CCC3)CCC2, “subjects with adverse event” read 0% (item: neutrophil count decreased, possibly related; human; oral, 100 mg twice daily, 14 days, multiple ascending dose).
O=C(Nc1cnccc1-c1ccc([18F])nc1)c1ccnc(NC(=O)C2CC2)c1 has an SUV of 0.318 (FVB/NJ mice (both sexes), spleen; intravenous, dose not given, 120 min, with: tariquidar 15 mg/kg i.v. pre-dose).
CC(C)(O)c1ncc([S@](N)(=O)=NC(=O)Nc2c3c(cc4c2CCC4)CCC3)s1: “subjects with TEAEs” 33% (item: skin, subcutaneous tissue disorders; healthy human; oral, 100 mg, all formulations pooled).
With [123I]c1ccc2nc(-c3ccc(-n4ccnn4)nc3)cn2c1 the tracer uptake was 0.714 %ID/g (male Wistar rat, kidney; intravenous, 4 MBq, 1 h).
For O=C([O-])CN1CCN(CC(=O)O)CCN(CC(=O)[O-])CCN(CC(=O)O)CC1.[64Cu+2], the clearance half-life was 0.318 ± 0.04 h (dynamic micro-PET imaging; rat, chronic myocardial infarction, remote myocardium; intravenous).

For quick reference, copied from above:
CC(C)(C)NCC(SS(=O)(=O)O)c1ccccc1 (stereo not drawn) — result for “body weight decrease”: -5% (Swiss Webster mice, Schistosoma mansoni-infected; 100 mg/kg x 2 doses from day 42 post-infection, perfusion day 56 post-infection; reference: vehicle).
With COc1cccc(OC)c1-c1cc(C(=O)NC2(C(=O)O)C3CC4CC(C3)CC2C4)nn1-c1ccc(C(=O)N(C)CCCN(C)C(=O)[C@H](CCCCNC(=O)[C@H](CC(C)C)NC(=O)C2OC2C(=O)O)NC(=O)CN2CCN(CC(=O)[O-])CCN(CC(=O)[O-])CCN(CC(=O)[O-])CC2)cc1C(C)C.[177Lu+3] (mixture of isomers) the tumour-to-stomach ratio was 26.4 (mouse HT-29 xenograft; 4 h, biodistribution; reference: tumour over stomach).
The radiochemical stability of CC(C)Cc1ccc(C(C)C(=O)N[C@@H](CCCCNC(=O)CCOCCOCCOCCOCCOCCOCCNC(=O)CN2CCN(CC(=O)[O-])CCN(CC(=O)[O-])CCN(CC(=O)[O-])CC2)C(=O)Nc2cccc3c(C(=O)NCC(=O)N4CC(F)(F)C[C@H]4C#N)ccnc23)cc1.[177Lu+3] (stereo partly drawn) is reported as 98.8 ± 1.5% (human serum; 4 h, 37 °C, 177Lu-labelled).
O=C1c2sc(-c3ccc(N4CCC(F)C4)nc3F)nc2CCN1c1cccnc1 (stereo not drawn) has a concentration of 469 ng/mL and 397 ng/mL and 526 ng/mL (CD1 mouse, plasma; i.v., dose not given, 0.033 h).
